Measured values collected from several papers.
Numbered parts are unrelated; each lists some results of a single study. Values joined by “and” are separate records of one study, mostly repeats; a detail may differ.
UniProt P42336, sequence (whole entry, unmodified, looked up): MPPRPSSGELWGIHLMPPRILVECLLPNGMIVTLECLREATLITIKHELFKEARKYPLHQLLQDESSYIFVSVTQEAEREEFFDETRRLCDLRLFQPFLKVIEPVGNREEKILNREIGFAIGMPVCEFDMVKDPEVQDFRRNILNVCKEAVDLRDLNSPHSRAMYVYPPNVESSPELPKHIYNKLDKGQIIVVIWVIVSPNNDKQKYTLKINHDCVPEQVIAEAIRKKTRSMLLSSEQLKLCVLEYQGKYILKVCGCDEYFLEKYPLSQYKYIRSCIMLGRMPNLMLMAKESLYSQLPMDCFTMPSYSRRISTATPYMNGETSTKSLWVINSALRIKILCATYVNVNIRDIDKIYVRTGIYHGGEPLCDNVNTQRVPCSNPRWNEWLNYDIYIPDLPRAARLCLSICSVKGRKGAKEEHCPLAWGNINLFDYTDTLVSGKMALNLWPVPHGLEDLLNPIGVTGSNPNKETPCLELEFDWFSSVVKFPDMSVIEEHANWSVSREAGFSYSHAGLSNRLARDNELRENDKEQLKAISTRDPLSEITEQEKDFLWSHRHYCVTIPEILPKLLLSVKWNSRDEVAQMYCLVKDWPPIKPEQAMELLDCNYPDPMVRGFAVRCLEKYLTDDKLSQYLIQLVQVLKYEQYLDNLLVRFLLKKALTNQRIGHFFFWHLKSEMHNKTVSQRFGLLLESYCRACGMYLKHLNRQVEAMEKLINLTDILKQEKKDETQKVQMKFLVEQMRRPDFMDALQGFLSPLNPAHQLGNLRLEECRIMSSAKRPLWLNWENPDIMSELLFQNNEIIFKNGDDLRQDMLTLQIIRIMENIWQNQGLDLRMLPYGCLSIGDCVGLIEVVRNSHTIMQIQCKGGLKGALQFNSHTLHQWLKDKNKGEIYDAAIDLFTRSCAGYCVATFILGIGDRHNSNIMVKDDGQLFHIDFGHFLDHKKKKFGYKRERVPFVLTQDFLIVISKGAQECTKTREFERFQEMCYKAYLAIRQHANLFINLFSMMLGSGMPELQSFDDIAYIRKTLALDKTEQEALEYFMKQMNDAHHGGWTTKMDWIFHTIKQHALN
UniProt P04629, sequence (whole entry, looked up): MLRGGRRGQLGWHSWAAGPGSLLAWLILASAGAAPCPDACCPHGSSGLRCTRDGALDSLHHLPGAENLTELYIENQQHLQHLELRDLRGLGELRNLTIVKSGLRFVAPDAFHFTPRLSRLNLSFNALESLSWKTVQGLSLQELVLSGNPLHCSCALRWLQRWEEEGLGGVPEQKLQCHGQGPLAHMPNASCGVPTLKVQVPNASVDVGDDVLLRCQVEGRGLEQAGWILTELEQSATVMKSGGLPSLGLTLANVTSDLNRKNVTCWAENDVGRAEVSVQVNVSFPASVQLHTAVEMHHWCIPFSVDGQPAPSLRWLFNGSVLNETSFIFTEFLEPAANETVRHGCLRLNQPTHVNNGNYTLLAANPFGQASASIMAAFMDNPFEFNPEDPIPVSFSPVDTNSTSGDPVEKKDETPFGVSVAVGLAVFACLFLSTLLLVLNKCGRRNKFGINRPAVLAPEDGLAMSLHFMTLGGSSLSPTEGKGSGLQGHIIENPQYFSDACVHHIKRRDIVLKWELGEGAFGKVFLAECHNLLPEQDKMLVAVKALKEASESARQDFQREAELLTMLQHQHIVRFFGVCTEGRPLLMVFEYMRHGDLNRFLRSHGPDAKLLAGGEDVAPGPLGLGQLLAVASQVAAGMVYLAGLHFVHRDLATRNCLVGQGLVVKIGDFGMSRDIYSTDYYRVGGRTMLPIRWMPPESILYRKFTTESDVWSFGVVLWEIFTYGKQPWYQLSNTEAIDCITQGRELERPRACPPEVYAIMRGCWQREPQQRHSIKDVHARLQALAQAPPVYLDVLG
UniProt Q9BYT3, sequence (whole entry, looked up): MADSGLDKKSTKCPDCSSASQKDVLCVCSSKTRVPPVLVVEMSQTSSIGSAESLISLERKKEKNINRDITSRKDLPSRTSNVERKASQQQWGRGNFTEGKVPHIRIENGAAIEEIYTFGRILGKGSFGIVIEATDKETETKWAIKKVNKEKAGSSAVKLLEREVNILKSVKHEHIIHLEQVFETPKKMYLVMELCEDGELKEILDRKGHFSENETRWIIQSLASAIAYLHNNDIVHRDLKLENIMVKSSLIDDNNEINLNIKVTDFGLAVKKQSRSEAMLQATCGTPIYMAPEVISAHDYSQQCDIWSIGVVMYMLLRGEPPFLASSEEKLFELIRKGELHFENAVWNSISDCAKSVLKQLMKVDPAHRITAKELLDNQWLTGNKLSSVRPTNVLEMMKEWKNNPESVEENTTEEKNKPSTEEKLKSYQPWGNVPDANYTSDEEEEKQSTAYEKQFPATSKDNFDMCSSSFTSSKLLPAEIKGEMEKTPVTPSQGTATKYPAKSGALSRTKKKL
UniProt Q9UKI8, sequence (whole entry, looked up): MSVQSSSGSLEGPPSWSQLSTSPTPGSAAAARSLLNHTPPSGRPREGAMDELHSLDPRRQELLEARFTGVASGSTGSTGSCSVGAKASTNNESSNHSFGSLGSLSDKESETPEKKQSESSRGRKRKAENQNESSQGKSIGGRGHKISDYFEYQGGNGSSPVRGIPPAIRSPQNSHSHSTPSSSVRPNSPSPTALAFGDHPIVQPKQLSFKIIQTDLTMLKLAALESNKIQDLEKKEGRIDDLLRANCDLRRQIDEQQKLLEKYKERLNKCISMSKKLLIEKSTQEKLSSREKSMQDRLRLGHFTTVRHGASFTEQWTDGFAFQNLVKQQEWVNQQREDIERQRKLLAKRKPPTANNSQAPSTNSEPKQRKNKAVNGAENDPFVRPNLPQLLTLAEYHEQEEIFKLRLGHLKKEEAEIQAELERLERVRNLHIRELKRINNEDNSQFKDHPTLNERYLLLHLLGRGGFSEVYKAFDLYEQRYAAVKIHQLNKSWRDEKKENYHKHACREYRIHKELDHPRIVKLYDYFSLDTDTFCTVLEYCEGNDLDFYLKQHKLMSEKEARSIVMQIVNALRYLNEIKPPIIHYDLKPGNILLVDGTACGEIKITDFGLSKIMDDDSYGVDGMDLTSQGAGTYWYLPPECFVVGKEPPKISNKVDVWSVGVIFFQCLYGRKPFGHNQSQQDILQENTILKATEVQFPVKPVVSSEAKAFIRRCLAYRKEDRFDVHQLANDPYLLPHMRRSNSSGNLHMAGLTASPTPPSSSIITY
UniProt Q8WTQ7, sequence (whole entry, looked up): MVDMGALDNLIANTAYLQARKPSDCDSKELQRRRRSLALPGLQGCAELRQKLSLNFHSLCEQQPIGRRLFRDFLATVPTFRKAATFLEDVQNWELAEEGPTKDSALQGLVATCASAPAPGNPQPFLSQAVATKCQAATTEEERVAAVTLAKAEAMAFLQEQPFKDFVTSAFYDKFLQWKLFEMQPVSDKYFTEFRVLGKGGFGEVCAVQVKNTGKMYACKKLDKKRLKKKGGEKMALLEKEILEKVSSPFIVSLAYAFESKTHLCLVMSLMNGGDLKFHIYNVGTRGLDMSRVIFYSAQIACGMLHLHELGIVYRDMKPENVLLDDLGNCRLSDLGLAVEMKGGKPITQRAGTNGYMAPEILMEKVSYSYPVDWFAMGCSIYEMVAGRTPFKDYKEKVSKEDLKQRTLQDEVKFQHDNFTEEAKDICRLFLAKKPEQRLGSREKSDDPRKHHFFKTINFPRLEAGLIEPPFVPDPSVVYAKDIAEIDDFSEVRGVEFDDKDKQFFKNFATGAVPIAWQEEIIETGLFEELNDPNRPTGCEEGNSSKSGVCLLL
UniProt P24723, sequence (whole entry, looked up): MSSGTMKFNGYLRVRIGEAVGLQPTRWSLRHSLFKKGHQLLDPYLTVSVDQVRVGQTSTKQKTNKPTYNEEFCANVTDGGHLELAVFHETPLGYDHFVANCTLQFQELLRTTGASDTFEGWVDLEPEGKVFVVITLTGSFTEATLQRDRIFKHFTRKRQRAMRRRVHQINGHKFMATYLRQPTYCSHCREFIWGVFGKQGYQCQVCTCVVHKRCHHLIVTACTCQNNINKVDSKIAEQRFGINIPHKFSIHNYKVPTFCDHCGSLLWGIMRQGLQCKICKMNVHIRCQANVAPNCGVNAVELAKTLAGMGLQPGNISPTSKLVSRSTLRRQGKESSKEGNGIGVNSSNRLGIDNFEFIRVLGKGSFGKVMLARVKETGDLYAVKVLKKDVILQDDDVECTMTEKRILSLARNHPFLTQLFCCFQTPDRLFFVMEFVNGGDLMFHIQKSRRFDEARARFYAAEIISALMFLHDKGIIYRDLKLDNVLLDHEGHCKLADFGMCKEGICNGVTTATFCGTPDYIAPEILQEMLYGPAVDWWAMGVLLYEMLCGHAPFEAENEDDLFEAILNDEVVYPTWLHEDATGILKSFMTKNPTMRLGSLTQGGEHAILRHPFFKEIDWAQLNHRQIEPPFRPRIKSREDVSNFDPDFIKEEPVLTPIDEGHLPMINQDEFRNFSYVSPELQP
UniProt P11802, sequence (whole entry, looked up): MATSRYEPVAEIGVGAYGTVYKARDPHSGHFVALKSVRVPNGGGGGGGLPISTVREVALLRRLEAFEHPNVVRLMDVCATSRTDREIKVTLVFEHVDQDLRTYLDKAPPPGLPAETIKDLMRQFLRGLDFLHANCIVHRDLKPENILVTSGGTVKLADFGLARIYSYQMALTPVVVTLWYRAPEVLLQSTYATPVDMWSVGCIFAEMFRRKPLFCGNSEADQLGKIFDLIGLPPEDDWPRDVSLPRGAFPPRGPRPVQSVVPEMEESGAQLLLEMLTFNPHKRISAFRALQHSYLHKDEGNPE

Study 1
Compound: O=C(Nc1cccnn1)N1CCC(=Cc2cccc(Oc3ccc(C(F)(F)F)cn3)c2)CC1
Observed: cell-free assay
Method: competition with immobilised ligand
Concentration: 1 µM
target	remaining binding
TLK1 (Homo sapiens, UniProt Q9UKI8)	100%
HUNK (Homo sapiens, UniProt P57058)	87%
COQ8B (Homo sapiens, UniProt Q96D53)	81%
CLK3 (Homo sapiens, UniProt P49761)	100%
TBK1 (Homo sapiens, UniProt Q9UHD2)	100%
FGFR3 (Homo sapiens, UniProt P22607, G697C)	100%
PRKCH (Homo sapiens, UniProt P24723)	77%
MAP2K5 (Homo sapiens, UniProt Q13163)	100%
STK25 (Homo sapiens, UniProt O00506)	100%
LCK (Homo sapiens, UniProt P06239)	80%
Cyclin-dependent kinase 4, with cyclin D1 (CDK4, Homo sapiens, UniProt P11802)	100%
TGFBR2 (Homo sapiens, UniProt P37173)	76%
PIK3CA (Homo sapiens, UniProt P42336, C420R)	100%
EPHA3 (Homo sapiens, UniProt P29320)	100%
IRAK1 (Homo sapiens, UniProt P51617)	100%
STK33 (Homo sapiens, UniProt Q9BYT3)	100%
MST1R (Homo sapiens, UniProt Q04912)	92%
Tyrosine-protein kinase JAK1, JH1 (JAK1, Homo sapiens, UniProt P23458)	97%
NTRK1 (Homo sapiens, UniProt P04629)	100%
WNK2 (Homo sapiens, UniProt Q9Y3S1)	92%
GRK7 (Homo sapiens, UniProt Q8WTQ7)	100%
PRKD1 (Homo sapiens, UniProt Q15139)	100%
PIK3CA (Homo sapiens, UniProt P42336)	100%
MAP3K10 (Homo sapiens, UniProt Q02779)	100%
EGFR (Homo sapiens, UniProt P00533)	100%

Study 2
Target: Diamine acetyltransferase 1 (Homo sapiens, UniProt P21673)
Mode: inhibitor
Concentration: 10 µM
Relative to: control
Target sequence (P21673 1-171): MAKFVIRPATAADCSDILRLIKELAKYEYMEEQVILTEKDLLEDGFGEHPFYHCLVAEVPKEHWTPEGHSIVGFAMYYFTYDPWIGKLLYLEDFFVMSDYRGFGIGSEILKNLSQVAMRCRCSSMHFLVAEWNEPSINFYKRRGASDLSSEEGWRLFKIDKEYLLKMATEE
SMILES	remaining activity
O=C(O)CC(O)C(=O)O (centres unmarked)	98.5%
CC1(C)[C@H]2CC[C@]1(C)C(=O)C2	88.5%
CS(C)(=O)=O	89%
O=C1c2c(O)cc(O)cc2O[C@H](c2ccc(O)cc2)[C@@H]1[C@@H]1C(=O)c2c(O)cc(O)cc2O[C@H]1c1ccc(O)cc1	102%
CC(C)=CCc1c(-c2ccc(O)cc2O)oc2c([C@H]3C=C(C)C[C@@H](c4ccc(O)cc4O)[C@@H]3C(=O)c3ccc(O)cc3O)c(O)cc(O)c2c1=O	86.7%
C[C@@H]1C(=O)O[C@H]2[C@@H](O)[C@@]34[C@H]5C[C@@H](C(C)(C)C)[C@]36[C@@H](OC(=O)[C@@H]6O)O[C@@]4(C(=O)O5)[C@@]12O	59.4%
C=C1CC[C@]2(C)CC[C@]3(C)[C@H](CC[C@@H]4[C@@]5(C)CC[C@H](OC(C)=O)C(C)(C)[C@@H]5CC[C@]43C)[C@H]2[C@@H]1C	91.9%
C=C(C)[C@@H]1CC[C@]2(C(=O)O)CC[C@]3(C)[C@H](CC[C@@H]4[C@@]5(C)CC[C@H](O)[C@@](C)(CO)[C@@H]5CC[C@]43C)[C@@H]12	88.2%
COc1cc([C@H]2OC[C@H]3[C@@H]2CO[C@@H]3c2ccc(O[C@@H]3O[C@H](CO)[C@@H](O)[C@H](O)[C@H]3O)c(OC)c2)ccc1O	67.2%
O=c1c(O[C@@H]2O[C@H](CO)[C@H](O)[C@H](O)[C@H]2O)c(-c2ccc(O)c(O)c2)oc2cc(O)cc(O)c12	72.4%
O=C1O[C@H]([C@@H](O)CO)C(O)=C1O	100%
COc1cccc(OC)c1O	89.1%

Study 3
Species: human
Matrix: microsomes or S9
Concentration: 2 µM
Time: 0.5 h
Compound	remaining compound [%]
CC(=O)c1c([S+]([O-])CCC(C)C)[nH]c2c(Cc3ccccc3)cccc2c1=O (centres unmarked)	0.061
Cc1ccc(S(=O)(=O)c2cn(CC3CCCO3)c(=O)n(-c3ccccc3)c2=O)cc1 (centres unmarked)	10.4
COc1ccc(CCN[C@H]2CS(=O)(=O)C[C@@H]2S(=O)(=O)c2ccc(F)c(C)c2)cc1OC	1.42
CCn1c(=O)n(CC)c2cc(NS(C)(=O)=O)c(Br)cc21	95
CC(C)(C)c1nnc2ccc(N3CCCc4occc4C3)nn12	36.7
CC(Oc1ccc(F)cc1Br)C(=O)NCC(C)c1ccncc1 (centres unmarked)	9.84
COc1ccc(Cn2c(-c3c(C)n[nH]c3-c3ccccc3)nc3ccccc32)cc1	14.1
CNC(=O)CN(c1ccc(C(C)C)cc1)S(C)(=O)=O	88.4
COc1ccc2c(c1)c(=O)oc1cc(OC/C=C(/C)CCC=C(C)C)ccc12	88.3
O=C(c1c(OCC2CC2)cc(=O)n2c1CCOCC2)N1CCN(c2ccccc2)CC1	74.6
Cc1cnn(C2CCCC2)c1NC(=O)N1CCC[C@H]1c1nc(C(C)C)no1	40.7
CN(C)C(=O)NC1CCC(Nc2ncnc3[nH]ccc(=O)c23)CC1 (centres unmarked)	> 99.9

Mixed results
Compound	target	assay	setting	scale	measurement	value
C[C@@H]1CN(c2ccc(-c3cc(C(=O)NCCOCCOCCOCCOCCOCCOCCOCCOCCOCCNC(=O)/C=C/c4[nH]cc(C(=O)N[C@@H](CC(N)=O)c5ccc(F)c(Cl)c5)c4-c4ccc(Cl)cc4F)ccc3F)cc2NC(=O)c2c[nH]c(=O)cc2C(F)(F)F)C[C@H](C)N1C	WD repeat-containing protein 5 (WDR5, Homo sapiens, UniProt P61964)	degrader, Jess capillary immunoassay, refers to: WDR5 over vinculin	777 nM, 24 h	relative to: DMSO	remaining protein level	50.8% and 54% and 63.9%

Some of these lines once more (study 1):
target	remaining binding
NTRK1 (Homo sapiens, UniProt P04629)	100%
WNK2 (Homo sapiens, UniProt Q9Y3S1)	92%
GRK7 (Homo sapiens, UniProt Q8WTQ7)	100%
PRKD1 (Homo sapiens, UniProt Q15139)	100%
PIK3CA (Homo sapiens, UniProt P42336)	100%
